Assay results pooled from the literature.
Several values in a cell are separate wells, animals, samples, runs or records. ± gives the spread as reported.

SMILES | tested on | test | system | setting | how to read | quantity | value
CC[C@H](C)[C@H](NC(=O)[C@H](Cc1ccccc1)NC(=O)[C@H](CCC(=O)O)NC(=O)[C@H](CCCNC(=N)N)NC(=O)[C@H](C)NC(=O)[C@H](C)NC(=O)[C@H](CCC(N)=O)NC(=O)[C@H](CCCCNc1c(NCCCCCN(O)C(=O)CCC(=O)NCCCCCN(O)C(=O)CCC(=O)NCCCCCN(O)C(C)=O)c(=O)c1=O)NC(=O)[C@H](CCC(=O)O)NC(=O)[C@H](CC(C)C)NC(=O)[C@H](Cc1ccc(O)cc1)NC(=O)[C@H](CO)NC(=O)[C@H](CO)NC(=O)[C@@H](NC(=O)[C@H](CC(=O)O)NC(=O)[C@H](CO)NC(=O)[C@@H](NC(=O)[C@H](Cc1ccccc1)NC(=O)[C@@H](NC(=O)CNC(=O)[C@H](CCC(=O)O)NC(=O)[C@H](C)NC(=O)CCc1cnc[nH]1)[C@@H](C)O)[C@@H](C)O)C(C)C)C(=O)N[C@@H](C)C(=O)N[C@@H](Cc1c[nH]c2ccccc12)C(=O)N[C@@H](CC(C)C)C(=O)N[C@H](C(=O)N[C@@H](CCCCNc1c(NCCCCCN(O)C(=O)CCC(=O)NCCCCCN(O)C(=O)CCC(=O)NCCCCCN(O)C(C)=O)c(=O)c1=O)C(=O)NCC(=O)N[C@@H](CCCNC(=N)N)C(=O)N[C@@H](CCCCNC(=O)COCCOCCNC(=O)COCCOCCNC(=O)CC[C@H](NC(=O)CCCCCCCCCCCCCCCCC(=O)O)C(=O)O)C(=O)O)C(C)C | Glucagon-like peptide 1 receptor (GLP1R, Homo sapiens, UniProt P43220) | agonist, CRE luciferase reporter | BHK cells | Zr-loaded DFO conjugate, together with: 0% HSA | baseline: parent peptide | fold potency loss | 5.8
Nc1nc2c(ncn2[C@@H]2O[C@H](COP(=O)(O)O)[C@@H](O)[C@H]2O)c(=O)[nH]1 | GUK1 (Homo sapiens, UniProt Q16774) | enzyme activity, NADH-coupled | – | 31.25 µM, together with: KCl 150 mM | – | reaction velocity | 0.0614 µM/s and 0.0635 µM/s and 0.0478 µM/s
COc1cccc(-n2nc3c4cc(Cl)ccc4[nH]cc-3c2=O)c1 | Gamma-aminobutyric acid receptor subunit alpha-6/beta-3, with delta subunit (Gabra6/Gabrb3, Rattus norvegicus, UniProt P30191+P63079) | ion current, modulator, two-electrode voltage clamp | – | 10 nM, α6β3δ receptor, together with: GABA EC3-10 | – | efficacy | 101 ± 1.4%
COc1cc(/C=C2\SC(=O)NC2=O)cc(F)c1OCCNc1nc2c(cnn2C2CCCC2)c(=O)[nH]1 | 3',5'-cyclic-AMP phosphodiesterase 4D (PDE4D, Homo sapiens, UniProt Q08499) | – | – | – | baseline: PDE4D over PDE9 | selectivity ratio | 232 fold
O=c1nc(SCc2ccc(C(F)(F)F)cc2)nc(SCc2csc3ccc(Cl)cc23)[nH]1 | DNA topoisomerase 2-alpha (TOP2A, Homo sapiens, UniProt P11388) | DNA relaxation | – | 31.25 µM, replicate 1 | – | relaxed DNA | 0%
O=C(O)C1CCCNC1 (stereo not drawn) | Sodium- and chloride-dependent taurine transporter (SLC6A6, Homo sapiens, UniProt P31641, Y138A) | binding, microscale thermophoresis | – | 977 nM, room temperature, together with: 50 nM labelled protein | higher = more binding | normalised MST signal | 0.219
CC(C(=O)Nc1ccc([C@H]2[C@@H](F)[C@@H](F)C[C@@H](F)[C@H]2F)cc1)n1cncn1 (stereo partly drawn) | – | – | dog liver microsomes | 1 µM | – | hepatic clearance | 10 mL/min/kg
C=CC(=O)N1CCC(COCC(=O)N2CCN(c3nc(-c4cnc(N)nc4C(F)F)nc(N4CCOC[C@@H]4C)n3)CC2)CC1 | cAMP-dependent protein kinase catalytic subunit alpha (PRKACA, Homo sapiens, UniProt P17612) | KINOMEscan | – | 1 µM | – | remaining binding | 92%
O=C(c1ccc([C@H]2[C@@H](F)[C@@H](F)C[C@@H](F)[C@H]2F)cc1)N1CC(O)C1 | – | liver microsome stability | dog liver microsomes | 1 µM | – | hepatic clearance | 7.3 mL/min/kg
CCCCC[S+]([O-])c1n[nH]c(N)n1 (stereo not drawn) | Transcription intermediary factor 1-alpha, PHD-bromodomain (TRIM24, Homo sapiens, UniProt O15164) | binding, affinity selection mass spectrometry | – | – | baseline: other proteins in batch | fold enrichment | 0.874
NCCS | uncharacterized protein (Pelagibacter ubique, UniProt Q4FMK2) | differential scanning fluorimetry | Candidatus Pelagibacter ubique | concentration not given | higher = stronger binding | ΔTm | 6.43 °C
CCC1(O)CCCN(C(=O)c2ccc(-c3ccc(F)c(NC(=O)CCl)c3)cc2)C1 (stereo not drawn) | DNA dC->dU-editing enzyme APOBEC-3A (Homo sapiens, UniProt P31941) | covalent modifier, intact protein mass spectrometry, measured: adduct +26691 Da | – | 25 µM, 1 h, 1-fold molar excess | – | protein adduct | 0%

Excerpt of the above:
SMILES | tested on | test | system | setting | how to read | quantity | value
CCC1(O)CCCN(C(=O)c2ccc(-c3ccc(F)c(NC(=O)CCl)c3)cc2)C1 (stereo not drawn) | DNA dC->dU-editing enzyme APOBEC-3A (Homo sapiens, UniProt P31941) | covalent modifier, intact protein mass spectrometry, measured: adduct +26691 Da | – | 25 µM, 1 h, 1-fold molar excess | – | protein adduct | 0%
